Experimental data gathered from unrelated publications.
Target: MAP/microtubule affinity-regulating kinase 4 (MARK4, Homo sapiens, UniProt Q96L34)
One construct used (Q96L34 1-752): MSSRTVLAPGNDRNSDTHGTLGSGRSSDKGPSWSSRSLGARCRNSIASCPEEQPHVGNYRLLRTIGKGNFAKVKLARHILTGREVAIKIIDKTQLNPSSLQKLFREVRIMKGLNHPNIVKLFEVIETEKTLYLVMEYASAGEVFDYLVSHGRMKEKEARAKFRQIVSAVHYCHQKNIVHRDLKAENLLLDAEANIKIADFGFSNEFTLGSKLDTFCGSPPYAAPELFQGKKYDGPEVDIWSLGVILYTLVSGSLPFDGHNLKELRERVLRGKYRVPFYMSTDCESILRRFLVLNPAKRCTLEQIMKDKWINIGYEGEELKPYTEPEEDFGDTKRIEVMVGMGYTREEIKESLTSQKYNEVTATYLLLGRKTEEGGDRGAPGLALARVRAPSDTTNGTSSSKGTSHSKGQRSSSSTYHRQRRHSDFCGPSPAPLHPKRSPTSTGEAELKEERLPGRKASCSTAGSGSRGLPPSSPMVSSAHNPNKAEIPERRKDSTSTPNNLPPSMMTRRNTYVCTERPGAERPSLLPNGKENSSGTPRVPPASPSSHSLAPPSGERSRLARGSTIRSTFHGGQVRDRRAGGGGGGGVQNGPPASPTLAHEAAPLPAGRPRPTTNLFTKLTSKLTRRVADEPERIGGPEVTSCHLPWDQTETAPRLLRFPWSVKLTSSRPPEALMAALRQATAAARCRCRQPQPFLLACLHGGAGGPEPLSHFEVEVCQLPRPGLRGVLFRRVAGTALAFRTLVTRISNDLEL

C[C@@H](c1ccc(-n2cnc3c(N)ncnc32)cc1)N1CCc2nn(C)c(Cc3ccccc3)c2C1=O — remaining binding (KINOMEscan; 0.1 µM; relative to: DMSO control): 94%
Nc1ncc2c(n1)-c1c([nH]c3ccc(-c4ccc(F)cc4)cc13)CCC2 — remaining activity (kinase activity, inhibitor, radiometric; 1 µM, together with: ATP at Km): 73%
CNc1ncc2c(/C=C/C(=O)N3CCC(OC)CC3)nn(Cc3cccc(C(F)(F)F)c3)c2n1 — remaining activity (kinase activity, inhibitor; 1 µM; relative to: untreated control): 101%
O=C1NC(=O)/C(=C/c2ccc(-c3ccc(F)cc3O)o2)S1 — remaining activity (enzyme activity; 10 µM): 63%
O=C(NC1CCC1)c1ccc2nc(-c3cccc(NS(=O)(=O)NCCN4CCCCC4)c3)cn2c1 — remaining activity (enzyme activity; 10 µM): 91%
C=CC(=O)N1CCC(COCC(=O)N2CCN(c3nc(-c4cnc(N)nc4C(F)F)nc(N4CCOC[C@@H]4C)n3)CC2)CC1 — remaining binding (KINOMEscan; 1 µM; relative to: DMSO control): 100%
C1=C/COCc2cc(ccc2OCCN2CCCC2)Nc2nccc(n2)-c2cccc(c2)COC/1 — percent of control (concentration not given): 100%
C=CC(=O)N1CCC(C(=O)NCC(=O)N2CCN(c3nc(-c4cnc(N)nc4C(F)F)nc(N4CCOCC4)n3)CC2)CC1 — remaining binding (KINOMEscan; 1 µM): 97%
CC[C@@H]1[C@H](F)C(=O)N[C@@H]1COc1nccc2cc(C(N)=O)c(OC)cc12 — inhibition (ATP-site probe binding, ActivX profiling; THP-1 cell lysate; 0.2 mM, Lys2 site): 13.2%

A few entries again:
C1=C/COCc2cc(ccc2OCCN2CCCC2)Nc2nccc(n2)-c2cccc(c2)COC/1 — percent of control (concentration not given): 100%
